Measured values from different studies.
Lines come from different studies, so protocols differ. pIC50, pKi: −log10 of the molar value. ≈ marks a conversion by molar mass, not a printed value.

By UniProt entry, the sequences of proteins in these tests, tags left out.
UniProt Q15375, whole entry, looked up: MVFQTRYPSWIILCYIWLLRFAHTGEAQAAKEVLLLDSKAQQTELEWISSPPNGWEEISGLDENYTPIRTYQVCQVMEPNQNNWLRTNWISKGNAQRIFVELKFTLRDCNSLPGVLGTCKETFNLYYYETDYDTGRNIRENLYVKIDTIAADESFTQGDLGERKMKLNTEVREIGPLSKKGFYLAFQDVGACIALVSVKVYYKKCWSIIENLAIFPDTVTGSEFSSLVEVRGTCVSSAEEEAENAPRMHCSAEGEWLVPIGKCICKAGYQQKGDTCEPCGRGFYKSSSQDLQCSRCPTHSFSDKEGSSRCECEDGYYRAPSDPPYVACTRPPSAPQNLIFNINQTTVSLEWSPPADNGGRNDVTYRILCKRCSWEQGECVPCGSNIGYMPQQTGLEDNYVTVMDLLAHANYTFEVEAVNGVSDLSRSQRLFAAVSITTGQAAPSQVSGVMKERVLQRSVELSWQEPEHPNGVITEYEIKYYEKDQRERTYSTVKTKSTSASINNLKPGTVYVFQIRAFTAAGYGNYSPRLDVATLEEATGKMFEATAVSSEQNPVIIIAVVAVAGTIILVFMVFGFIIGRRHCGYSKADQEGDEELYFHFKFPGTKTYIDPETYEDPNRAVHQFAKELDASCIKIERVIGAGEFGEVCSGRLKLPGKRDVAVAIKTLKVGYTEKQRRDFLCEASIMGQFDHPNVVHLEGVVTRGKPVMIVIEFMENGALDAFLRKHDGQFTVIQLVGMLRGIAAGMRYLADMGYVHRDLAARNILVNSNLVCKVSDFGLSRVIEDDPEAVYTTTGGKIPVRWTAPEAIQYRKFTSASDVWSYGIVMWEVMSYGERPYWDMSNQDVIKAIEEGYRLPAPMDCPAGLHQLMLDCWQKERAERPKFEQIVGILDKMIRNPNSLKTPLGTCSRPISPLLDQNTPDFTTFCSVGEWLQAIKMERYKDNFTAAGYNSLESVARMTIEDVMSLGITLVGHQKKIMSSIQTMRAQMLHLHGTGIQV
UniProt P21918, whole entry: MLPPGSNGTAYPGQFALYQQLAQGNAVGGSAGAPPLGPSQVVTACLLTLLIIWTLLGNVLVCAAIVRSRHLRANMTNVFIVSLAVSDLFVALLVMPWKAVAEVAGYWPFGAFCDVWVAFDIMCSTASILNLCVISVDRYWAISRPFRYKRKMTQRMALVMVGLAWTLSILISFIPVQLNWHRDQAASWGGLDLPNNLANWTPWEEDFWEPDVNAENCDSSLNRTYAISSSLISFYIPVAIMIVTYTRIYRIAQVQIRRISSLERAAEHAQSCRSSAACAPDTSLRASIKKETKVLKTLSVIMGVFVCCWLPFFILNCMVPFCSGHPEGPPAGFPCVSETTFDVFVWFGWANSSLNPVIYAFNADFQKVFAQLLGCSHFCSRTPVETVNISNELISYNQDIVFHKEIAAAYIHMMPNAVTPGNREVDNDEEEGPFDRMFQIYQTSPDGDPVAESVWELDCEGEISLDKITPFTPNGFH

| SMILES | target or system | assay | system | conditions | how to read | measurement | value |
| --- | --- | --- | --- | --- | --- | --- | --- |
| Cc1ccc(CCNC(=O)c2cnn3c(O)c(Cc4cc(C)ccc4C)c(C)nc23)cc1 | Zika virus | viral replication | PF-251013-18 | – | – | pIC50 | 5.00 to 6.00 |
| CCN1CCN(Cc2ccc(NC(=O)c3ccc(C)c(/C=C/c4cnc5[nH]ccc5c4OC)c3)cc2C(F)(F)F)CC1 | human EGFR vIII | kinase-CDC37 interaction, inhibitor | human cells | 5 µM | reference: vehicle | log2 fold change | 0.309 |
| COc1ccc(Nc2cc(C)c3cc(NC(=O)c4ccc(N(C)C)cc4)ccc3n2)cc1 | Zika virus | viral replication | PF-251013-18 | – | – | pIC50 | < 5.00 |
| CSc1nc(Cl)cc(Sc2nnc(-c3cc(C(F)(F)F)cc(C(F)(F)F)c3)[nH]2)n1 | Pseudomonas aeruginosa | – | MDR clinical isolate | – | – | MIC | > 590 µg/mL |
| O=C(Cn1c(-c2ccccn2)nc2ccccc21)Nc1ccc2ccccc2c1 | Helicobacter pylori | cell growth | G27 | exponentially growing culture | – | minimum concentration blocking growth | 60 µM |
| CCCCCCC1c2ccc(O)cc2Oc2cc(O)ccc21 | Pseudomonas aeruginosa | – | MDR clinical isolate | together with: polymyxin B nonapeptide 3 µg/mL | – | MIC | 1.9 µg/mL (≈ 6.37 µM) |
| CC#C/C(=N\OC[C@H]1COCCN1)c1ccc2ncnc(Nc3ccc(OCc4cccc(F)c4)c(Cl)c3)c2c1 | EPHA7 (Homo sapiens, UniProt Q15375) | kinase activity | – | 10 µM | – | inhibition | 6.3% |
| CCc1nc(N)nc(N)c1C#CCc1cc(OC)c(OC)c(-c2ccncc2)c1 | Staphylococcus aureus | – | ATCC 43300 | – | – | MIC | 0.0391 µg/mL (≈ 0.1 µM) |
| CCOC(=O)OCOc1c(-c2ccc(Oc3ccc(OC(F)(F)F)cc3)cc2)c(C)nc2cc(OC)c(Cl)cc12 | Plasmodium yoelii | parasitemia suppression | mouse | oral, 4 days, PEG-400 vehicle | – | ED90 | 0.05 mg/kg/day |
| CCCN1CCN(c2ccc3c(c2)C2CC3CCN2C(=O)OCc2ccccc2)CC1 (stereo not drawn) | DRD5 (Homo sapiens, UniProt P21918) | binding, radioligand binding | – | – | – | pKi | 5.31 |
| COCOc1ccc2nc3ccc(=O)cc-3oc2c1 | Mycobacterium tuberculosis | – | mc2 6206 bedaquiline-resistant MmpL5 regulator mutant | 7 days | – | MIC90 | 14.3 µM (≈ 3.68 µg/mL) |
| CC(C)Cc1nnc2c(C(=O)NC3c4ccccc4-c4ccccc43)cccn12 | Escherichia coli | broth microdilution | wild type | – | – | MIC | > 64 µg/mL |

Some of these lines once more:
| SMILES | target or system | assay | system | conditions | how to read | measurement | value |
| --- | --- | --- | --- | --- | --- | --- | --- |
| COCOc1ccc2nc3ccc(=O)cc-3oc2c1 | Mycobacterium tuberculosis | – | mc2 6206 bedaquiline-resistant MmpL5 regulator mutant | 7 days | – | MIC90 | 14.3 µM (≈ 3.68 µg/mL) |
| CCN1CCN(Cc2ccc(NC(=O)c3ccc(C)c(/C=C/c4cnc5[nH]ccc5c4OC)c3)cc2C(F)(F)F)CC1 | human EGFR vIII | kinase-CDC37 interaction, inhibitor | human cells | 5 µM | reference: vehicle | log2 fold change | 0.309 |
